Results gathered from unrelated publications.
Lines come from different studies, so protocols differ. ± gives the spread as reported. Values after ≈ are worked out from the molar mass of the structure shown.
Chain of UniProt O75116 (whole entry, looked up): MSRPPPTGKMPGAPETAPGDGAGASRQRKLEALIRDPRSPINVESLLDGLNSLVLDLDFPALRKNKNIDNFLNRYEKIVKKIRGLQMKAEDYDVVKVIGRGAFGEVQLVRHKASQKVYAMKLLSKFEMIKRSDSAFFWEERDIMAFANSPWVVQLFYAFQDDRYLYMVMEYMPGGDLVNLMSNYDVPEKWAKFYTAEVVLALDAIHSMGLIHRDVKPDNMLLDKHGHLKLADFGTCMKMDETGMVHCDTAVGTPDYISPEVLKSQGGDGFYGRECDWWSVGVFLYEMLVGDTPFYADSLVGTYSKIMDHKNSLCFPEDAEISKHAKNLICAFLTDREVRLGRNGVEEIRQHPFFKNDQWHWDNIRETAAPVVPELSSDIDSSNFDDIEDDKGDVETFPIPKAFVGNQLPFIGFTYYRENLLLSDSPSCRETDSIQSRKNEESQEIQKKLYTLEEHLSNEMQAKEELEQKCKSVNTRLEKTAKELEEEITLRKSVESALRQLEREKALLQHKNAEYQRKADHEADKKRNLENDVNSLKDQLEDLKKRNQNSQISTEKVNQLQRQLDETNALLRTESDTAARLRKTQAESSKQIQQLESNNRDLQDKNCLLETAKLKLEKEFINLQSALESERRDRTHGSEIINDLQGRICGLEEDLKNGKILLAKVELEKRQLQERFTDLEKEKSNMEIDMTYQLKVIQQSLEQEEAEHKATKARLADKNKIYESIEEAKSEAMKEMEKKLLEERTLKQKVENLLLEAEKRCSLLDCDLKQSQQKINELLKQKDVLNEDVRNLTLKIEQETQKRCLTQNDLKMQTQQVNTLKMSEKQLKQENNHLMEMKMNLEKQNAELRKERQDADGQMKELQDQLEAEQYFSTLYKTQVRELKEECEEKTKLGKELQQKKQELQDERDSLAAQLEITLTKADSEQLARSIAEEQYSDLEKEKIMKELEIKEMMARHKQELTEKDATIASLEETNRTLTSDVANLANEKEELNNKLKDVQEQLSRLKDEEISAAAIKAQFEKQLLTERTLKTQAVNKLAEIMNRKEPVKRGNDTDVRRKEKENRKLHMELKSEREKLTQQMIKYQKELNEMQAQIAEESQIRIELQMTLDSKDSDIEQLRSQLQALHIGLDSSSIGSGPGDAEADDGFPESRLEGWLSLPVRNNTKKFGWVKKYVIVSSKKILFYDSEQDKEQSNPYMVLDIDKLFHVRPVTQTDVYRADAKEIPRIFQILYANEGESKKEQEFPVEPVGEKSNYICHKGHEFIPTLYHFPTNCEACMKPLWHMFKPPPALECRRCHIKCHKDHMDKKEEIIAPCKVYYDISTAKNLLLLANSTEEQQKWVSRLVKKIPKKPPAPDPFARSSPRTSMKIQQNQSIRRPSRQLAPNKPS

SMILES	tested on	test	test system	conditions	how to read	quantity	value
N=C(N)NCCC[C@H](NC(=O)CCCCCNC(=O)[C@H](CCCNC(=N)N)NC(=O)[C@H](CCCNC(=N)N)NC(=O)CCCCCNC(=O)[C@H](CCCNC(=N)N)NC(=O)[C@H](CCCNC(=N)N)NC(=O)CCCCCNC(=O)[C@H](CCCNC(=N)N)NC(=O)[C@H](CCCNC(=N)N)NC(=O)CCCCCNC(=O)[C@@H](N)CCCNC(=N)N)C(=O)NCCCCCC(=O)NCCC(=O)O	–	broth microdilution	ATCC 33592 resistant strain, Mueller-Hinton broth	–	–	MIC	192 µM (≈ 366 µg/mL)
NC(=O)c1cccc(-c2cc(OC(=O)NC3CCCCC3)ccc2O)c1	–	–	mouse carrageenan inflammation	oral, 0.1 mg/kg	–	paw oedema and hyperalgesia	no effect
CSCC[C@@H]1NC(=O)[C@H](Cc2c[nH]c3ccccc23)NC(=O)[C@@H](NC(=O)CCNC(=O)[C@H](CCC(N)=O)NC(=O)[C@@H]2CCCN2C(=O)[C@@H]2CCCN2C(=O)[C@H](CCCNC(=N)N)NC(=O)[C@H](CCCNC(=N)N)NC(=O)[C@H](CCCNC(=N)N)NC(=O)[C@H](CCC(N)=O)NC(=O)[C@H](CCCNC(=N)N)NC(=O)[C@H](CCCNC(=N)N)NC(=O)[C@H](CCCCN)NC(=O)[C@H](CCCCN)NC(=O)[C@H](CCCNC(=N)N)NC(=O)CN)CSSC[C@@H](C(=O)O)NC(=O)[C@H]([C@@H](C)O)NC(=O)CNC(=O)[C@H](CC(C)C)NC(=O)[C@H](Cc2c[nH]cn2)NC(=O)[C@H](CCCNC(=N)N)NC(=O)[C@@H]2CCCN2C(=O)[C@H](CO)NC1=O	–	immunohistochemistry, measured: CSNK2A1	NCI-H226 xenograft mouse, tumour tissue	intravenous, 2 mg/kg, day 16	–	CK2α staining	0.095 ± 0.021 IOD/area
CCCCC1(CCCC)CN(c2ccccc2)c2cc(SC)c(OCC(=O)N[C@@H](C(=O)NCC(=O)O)c3ccccc3)cc2S(=O)(=O)C1	–	measured: LDL cholesterol	human, serum	15 mg once daily, day 9	–	serum LDL-C	79.5 mg/dL
Nc1ccccc1C(=O)[O-].[Na+]	–	binding, MIDAS equilibrium dialysis LC-MS	A2AR-BRIL thermostabilized	concentration not given	reference: no-protein control	log2 fold change	-0.199
CN(C)CCOC(C)(c1ccccc1)c1ccccn1 (stereo not drawn)	Plasmodium falciparum	–	W2	–	–	IC50	3.98 µM
C[C@]1(CO)Cc2ncn(-c3ccc(C#N)c(Cl)c3)c2C(=O)O1	–	–	human	0.7 mg single dose	–	urinary sodium excretion Ae(0-24h)	212 mmol
CC[C@H](C)[C@@H]1NC(=O)[C@@H]2CCCN2C(=O)[C@H](CC(C)C)NC(=O)[C@H](CC(C)C)NC(=O)CNC(=O)[C@@H](NC(=O)[C@@H](NC(=O)[C@H](CC(=O)O)NC(=O)CNC(=O)[C@@H](NC(=O)[C@H](C)NC(=O)CNC(=O)[C@H](CCCCN)NC(=O)[C@H](CC(C)C)NC(=O)[C@H](CC(C)C)NC(=O)[C@H](CCCCN)NC(=O)CNC(=O)[C@@H](NC(=O)[C@@H](N)CC(C)C)C(C)C)C(C)C)C(C)C)CSSC[C@@H](C(=O)O)NC1=O	–	RNA-seq, measured: Ikbke mRNA	mouse traumatic brain injury, frontal cortex and hippocampus	dose not given	reference: TBI plus compound vs TBI	log2 fold change	-2.34
OC(CCN1CCCCC1)(c1ccccc1)C1CCCCC1 (stereo not drawn)	Plasmodium falciparum	–	HB3	–	–	IC50	10 µM
C[C@H]1CN(c2n[nH]c3nc(N[C@H]4CC[C@H](NS(=O)(=O)CCC(F)(F)F)CC4)ncc23)CCO1	Rho-associated protein kinase 2 (ROCK2, Homo sapiens, UniProt O75116)	inhibitor, Kinobeads competition profiling	–	20 µM	reference: vehicle	relative abundance	1.08
COc1cc(Br)cc(Br)c1Oc1cc(Br)cc(Br)c1O	–	sulfonation	human liver cytosol	–	–	Vmax/Km	37.3 ± 2.14 µL/min/mg
Cc1ccc(S(=O)(=O)Nc2c(N[C@H]3CC[C@H](NC(=O)Nc4ccc(F)c(Cl)c4)CC3)c(=O)c2=O)cc1	–	–	C57BL/6 mouse, DSS-induced colitis	oral, 100 mg/kg daily, day 8	reference: baseline	body weight loss	-11.9%

A few entries again:
SMILES	tested on	test	test system	conditions	how to read	quantity	value
CSCC[C@@H]1NC(=O)[C@H](Cc2c[nH]c3ccccc23)NC(=O)[C@@H](NC(=O)CCNC(=O)[C@H](CCC(N)=O)NC(=O)[C@@H]2CCCN2C(=O)[C@@H]2CCCN2C(=O)[C@H](CCCNC(=N)N)NC(=O)[C@H](CCCNC(=N)N)NC(=O)[C@H](CCCNC(=N)N)NC(=O)[C@H](CCC(N)=O)NC(=O)[C@H](CCCNC(=N)N)NC(=O)[C@H](CCCNC(=N)N)NC(=O)[C@H](CCCCN)NC(=O)[C@H](CCCCN)NC(=O)[C@H](CCCNC(=N)N)NC(=O)CN)CSSC[C@@H](C(=O)O)NC(=O)[C@H]([C@@H](C)O)NC(=O)CNC(=O)[C@H](CC(C)C)NC(=O)[C@H](Cc2c[nH]cn2)NC(=O)[C@H](CCCNC(=N)N)NC(=O)[C@@H]2CCCN2C(=O)[C@H](CO)NC1=O	–	immunohistochemistry, measured: CSNK2A1	NCI-H226 xenograft mouse, tumour tissue	intravenous, 2 mg/kg, day 16	–	CK2α staining	0.095 ± 0.021 IOD/area
